Measured values from different studies.
A part holds a random share of what one study measured.

Block 1 — method: RNA Bind-n-Seq; form: RNA; sample: in vitro; concentration: 365 nM; relative to: no-protein control; reading: higher = stronger binding
Target: RNA binding protein fox-1 homolog 2, RRM domain, GST-SBP tag (RBFOX2, Homo sapiens, UniProt O43251-10, residues 100-194)
Notes: natural RNA segment, single round, ends assumed
Construct (chain): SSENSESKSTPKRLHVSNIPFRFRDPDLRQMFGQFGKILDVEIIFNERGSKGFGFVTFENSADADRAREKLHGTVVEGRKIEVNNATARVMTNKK
| Sequence | RBNS enrichment (R) |
| --- | --- |
| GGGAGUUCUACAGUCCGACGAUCUAACUGUUAGCUUAAAACUGUGGGGUUUUACCUUCCUGGAACCAAAUGCAUUCUUCUGUUGAGGAGUAACAGGUCUCAAUUCUUUUCAAUUAAUUUUAAAAGUCAAUCACUGGAAUUCUCGGGUGCCAA | 0.493 |
| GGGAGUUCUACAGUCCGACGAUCGGAGGGUUAGGCAUGGGUGACACCCCAGAAGGGAACUUUCAUCUUUUCCCUUCCAAAAAUUGUCAACUGACUGAGGACAAAGAGAAAGCACCUCCCAGAAAGCUGUGAGCUGGAAUUCUCGGGUGCCAA | 0.486 |
| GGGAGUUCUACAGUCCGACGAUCGGUUGCAUUGAGCUACUGGGGGUAGGAGUUCCAACAUUUAUGUCCAGAGCAACUUCCAGCAAGGCUGGUCUGGGUCUCUGCCCACCAGGCGGGGAGGUGUUCAAAGACAUUGGAAUUCUCGGGUGCCAA | 0.276 |
| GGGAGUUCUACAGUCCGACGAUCUUGUGGAAAAUAUCAGCGUCGCUACCCUCAGAAACAAACUAACAGCACACGUUAGGAGGAGUCCUCAUCAGCUGUUCUCAUUGCCAGUGAGAUAUAUUCAGUAUUGUAGAUGGAAUUCUCGGGUGCCAA | 0.41 |
| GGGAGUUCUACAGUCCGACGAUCGGUCUCUUCUGCCAUUGUGCUGGUCCCAUCCCAAGAAUUGUAGGACAGAGACCACACUGGGUCGGCGGACACAAAGUCCAUCCAGGACCCAGGCCGCAGAGGGAGCAGGAUGGAAUUCUCGGGUGCCAA | 0.889 |

Block 2 — method: RNA Bind-n-Seq; form: RNA; sample: in vitro; concentration: 20 nM; notes: 6-mer, flanks averaged, single round; with: 150 mM KCl; relative to: input library; reading: higher = stronger binding
Target: TAR DNA-binding protein 43, full length, His tag (TARDBP, Homo sapiens, UniProt Q13148, residues 1-414)
| Sequence | 6-mer enrichment (R) |
| --- | --- |
| AAGCGC | 0.782 |
| CUAGAC | 0.633 |
| AUUGAG | 0.891 |
| UGGUUG | 1.25 |
| UCAAUG | 0.665 |
| GAUAAC | 0.679 |

Block 3 — method: aptamer microarray, sandwich; form: DNA with 2'F-ANA; sample: in vitro; concentration: 200 nM; with: Cy3 exosite-II aptamer, 400 nM; reading: higher = stronger binding; sequence: GGTTGGTGTGGTTGG
Target: Prothrombin, mature alpha-thrombin (F2, Homo sapiens, UniProt P00734)
Notes: whole 15-mer aptamer, many near background
| Modification | mean fluorescence intensity [a.u.] |
| --- | --- |
| 2'F-ANA at 3 4 5 11 12 13 | 126 |
| 2'F-ANA at 4 6 7 8 9 12 14 15 | 107 |
| 2'F-ANA at 1 2 6 7 8 11 13 14 | 72 |
| 2'F-ANA at 1 2 6 7 8 11 12 13 14 15 | 100 |
| 2'F-ANA at 1 2 3 4 6 10 11 12 13 14 | 94.9 |

Other studies, line by line
| Molecule | target | test | test system | conditions | scale | endpoint | value |
| --- | --- | --- | --- | --- | --- | --- | --- |
| PhoQ, residues 284 288 289 292 302 303 QWGLFV | PhoP, residues 12 14 15 18 19 SQCLL (Escherichia coli, UniProt P23836) | Sort-seq, item: YFP reporter | E. coli | PhoQ-PhoP variant library, with: 10 µM Mg2+ | relative to: high Mg2+ state, higher = stronger signaling | fold induction | 10.9 |

For quick reference, copied from above (block 1):
| Sequence | RBNS enrichment (R) |
| --- | --- |
| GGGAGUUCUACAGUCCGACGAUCUAACUGUUAGCUUAAAACUGUGGGGUUUUACCUUCCUGGAACCAAAUGCAUUCUUCUGUUGAGGAGUAACAGGUCUCAAUUCUUUUCAAUUAAUUUUAAAAGUCAAUCACUGGAAUUCUCGGGUGCCAA | 0.493 |
| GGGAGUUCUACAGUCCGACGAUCGGAGGGUUAGGCAUGGGUGACACCCCAGAAGGGAACUUUCAUCUUUUCCCUUCCAAAAAUUGUCAACUGACUGAGGACAAAGAGAAAGCACCUCCCAGAAAGCUGUGAGCUGGAAUUCUCGGGUGCCAA | 0.486 |
